Measurements collected from several papers.
Each numbered part is a random draw from the data of one study; scales do not carry over between parts. Changes are numbered by the printed parent chain.

Sample 1 — method: RNAcompete; molecule type: RNA; matrix: in vitro; concentration: 20 nM; setting: 7-mer, probes averaged, single round; baseline: mean of 7-mers; direction: higher = stronger binding; measurement: 7-mer Z-score
Target: PABPC1L2, full length, GST fusion (mouse, UniProt A0ABA7IW68)
Construct (chain): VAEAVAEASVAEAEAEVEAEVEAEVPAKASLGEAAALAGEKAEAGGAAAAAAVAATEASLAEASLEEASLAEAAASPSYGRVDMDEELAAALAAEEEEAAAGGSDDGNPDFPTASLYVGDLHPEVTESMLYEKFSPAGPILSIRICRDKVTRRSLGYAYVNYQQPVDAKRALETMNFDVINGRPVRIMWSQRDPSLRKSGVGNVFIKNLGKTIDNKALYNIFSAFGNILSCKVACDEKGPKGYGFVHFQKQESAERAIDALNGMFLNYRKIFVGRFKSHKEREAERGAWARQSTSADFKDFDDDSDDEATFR
CCGAAUA: 0.0134
AACUUGG: 0.249
AGAGCUA: -0.153
UACGUAU: -0.222
CACUCUU: -0.382
CCACUUU: -0.162
GAAGCUC: -0.248
CCACUGA: -0.231
GAGCCGG: -0.132
ACCUACC: -0.248
GACGGCG: -0.0446
GAUCUCA: -0.168
UUGAAAU: -0.193
CUAAGUC: -0.358
CUUUUUG: 0.177
UGCGAAA: 0.669
UUUUUAA: 0.0768
CUGGUGU: -0.175
UAUUGGA: -0.124
AAAGAGA: 1.87
CCUGCAA: 0.00617
AACGUGA: -0.108
GUGCAAC: -0.0935
CGUUACA: -0.079
UAUCGAG: -0.182

Sample 2 — method: protein binding microarray; molecule type: double-stranded DNA, one strand shown; matrix: in vitro; concentration: not given; baseline: not given; direction: higher = stronger binding; measurement: E-score
Target: Histone acetyltransferase KAT6A, both winged helices, GST fusion (KAT6A, Homo sapiens, UniProt Q92794, residues 1-181)
Setting: 8-mer, flanks averaged, mean of 2 arrays, mostly near background
Target sequence (chain): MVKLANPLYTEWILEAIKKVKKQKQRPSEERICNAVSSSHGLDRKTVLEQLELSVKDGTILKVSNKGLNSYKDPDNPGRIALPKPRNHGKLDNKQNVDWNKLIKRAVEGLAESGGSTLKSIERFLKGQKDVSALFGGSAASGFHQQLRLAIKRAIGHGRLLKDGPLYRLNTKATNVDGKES
GCAAATGA: -0.166
GGACTGAA: -0.119
AGATCGCT: 0.167
AGGTAGGA: -0.105
GGTAGTGA: -0.085
GCAAAAAC: 0.0867
CAAATGTG: 0.019
AGGTCTTC: -0.183
CAGTGACA: -0.0881
CACACCGA: 0.0346
GACTTATA: -0.0782
CGCTTGAG: 0.17
CACTGTGA: -0.0317
AGTCACTC: -0.172
GAGCGAAC: -0.0277
AATGCATT: -0.0639
AGGTCTGA: 0.0162
AGTGATGA: -0.234
GTGCCTGA: -0.0372
TCGGGCAA: 0.0623
TGAATTCA: -0.12

Sample 3 — method: RNA Bind-n-Seq; molecule type: RNA; matrix: in vitro; concentration: 200 nM; setting: whole 134-nt RNA, ends assumed; added: 150 mM KCl; baseline: input library; direction: higher = stronger binding; measurement: log2 enrichment
Target: Fragile X messenger ribonucleoprotein 1, C-terminal low-complexity region (Fmr1, Mus musculus, UniProt P35922)
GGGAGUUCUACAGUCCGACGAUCCCUGUGCUACACAUCGUAUGUACCGAAUCGGGGAAAAAAAGGGAAAAAAAGGAAAAAAAGGAAAGUAUUAUGUUACGCCGUUCGGAUCUGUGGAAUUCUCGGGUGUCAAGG: -0.751
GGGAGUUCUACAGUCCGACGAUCACCAUGAAAGUGGGCAUCUUUGGGAAGUGGGGCAAGGGGGGGAUAGGGAGGGGGGUAACACUUUGGGAACAGGUGGUCCCAGGUCGUUUCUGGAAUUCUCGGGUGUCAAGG: 0.497
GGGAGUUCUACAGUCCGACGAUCACCAUGAAGGUGGGCAUCUUUGGGAAGUGGGGCAAGGGGGGGAUAGGGAGGGGGGUAACACUUUGGGAACAGGUGGUCCCAGGUCGUUUCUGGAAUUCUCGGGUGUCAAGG: 0.847
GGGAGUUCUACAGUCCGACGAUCUUCCCCUGGAGGGCGCCUCCAUCCUUGGAGGCCUAGUGCCGUCGGAGAGAGAGCGGGAGCCGCGGACAGAGACGCGUGCGCAAUUCGGAGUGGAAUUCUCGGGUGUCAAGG: -1.17
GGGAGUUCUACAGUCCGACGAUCUAACUUUUGAGGAGGAUCUGAUGGAUAUGGCAGUGGACGUGGAUUUGGGGAUGGCUAUAAUGGGUAUGGAGGAGGACCUGGAGGUGGCAAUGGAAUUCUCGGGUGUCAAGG: 0.419
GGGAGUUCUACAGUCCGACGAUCCUCAAGUCCUGUGCUACACAUCGUAUGUACCGAAUCGGUUUGGAGGAAAAAGGAAAGUAUUAUGUUACGCCGUUCGGAUCUGCACUUCCAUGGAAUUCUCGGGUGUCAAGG: -0.0584
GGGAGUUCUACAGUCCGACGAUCUAACUUUAGAGUAGGAUCUGAUGGAUAUGGCAGUGGACGUGGAUUUGGGGAUGGCUAUAAUGGGUAUGGAGGAGGACCUGGAGGUGGCAAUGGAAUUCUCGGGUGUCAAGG: 0.398
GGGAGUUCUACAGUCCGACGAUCUCAAGUCCUGUGCUACACAUCGUAUGUACCGAAUCGGAAAGGAGGUUUUUUUGGAAAGUAUUAUGUUACGCCGUUCGGAUCUGCACUUCCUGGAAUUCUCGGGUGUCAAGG: -0.526
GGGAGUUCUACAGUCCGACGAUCCCUGUGCUACACAUCGUAUGUACCGAAUCGGGGUUUUUGGGGUUUUUGGGGAAAAAGGGGAAAGUAUUAUGUUACGCCGUUCGGAUCUGCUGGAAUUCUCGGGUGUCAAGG: 0.253

Sample 4 — target: CCND2, cyclin fold, Cln2 fusion (human); method: yeast growth competition, sequencing; matrix: yeast; setting: weak parent motif; baseline: not given; direction: higher = stronger binding; measurement: normalised enrichment score
Starting sequence: CDC25A docking peptide (human); PPHRRRLLFACSP; partner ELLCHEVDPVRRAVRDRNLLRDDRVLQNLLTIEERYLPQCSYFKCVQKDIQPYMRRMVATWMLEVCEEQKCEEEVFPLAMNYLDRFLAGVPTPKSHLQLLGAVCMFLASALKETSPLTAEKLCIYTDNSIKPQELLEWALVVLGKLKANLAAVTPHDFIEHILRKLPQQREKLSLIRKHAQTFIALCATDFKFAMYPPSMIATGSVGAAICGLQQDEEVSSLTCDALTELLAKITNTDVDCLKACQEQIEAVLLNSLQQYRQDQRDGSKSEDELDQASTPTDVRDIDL
PPHRRRLRFACSP [L8R]: 0.252
PPHRRTLLFACSP [R6T]: 0.265
PPHRRRLLFACGP [S12G]: 0.345
PPHRQRLLFACSP [R5Q]: 0.394
PPHRRRLLFQCSP [A10Q]: 0.408
PPHRRRLLAACSP [F9A]: 0.318
PAHRRRLLFACSP [P2A]: 0.155
PPHRARLLFACSP [R5A]: 0.438
PPHRRRLLFACCP [S12C]: -0.109
PPHRRRLLFACMP [S12M]: 0.325
PPHRRRLLPACSP [F9P]: 0.00608
PPHIRRLLFACSP [R4I]: 0.223
PPHRRHLLFACSP [R6H]: 0.0275
PPHRRRLLFAFSP [C11F]: -0.163
PPHRRRLLFACEP [S12E]: 0.214
PPHCRRLLFACSP [R4C]: 0.363
YPHRRRLLFACSP [P1Y]: 0.456
PPHRRRLLDACSP [F9D]: -0.331
PPHRRRLLFAASP [C11A]: 0.343
PRHRRRLLFACSP [P2R]: 0.122
PPHRRRLLFAMSP [C11M]: -0.308
PPHRRRLLFLCSP [A10L]: -0.296
PPHRRRLLFACVP [S12V]: 0.174
PPCRRRLLFACSP [H3C]: 0.343
PPHRRRGLFACSP [L7G]: 0.0693

Sample 5 — method: RNA Bind-n-Seq; molecule type: RNA; matrix: in vitro; concentration: 365 nM; baseline: no-protein control; direction: higher = stronger binding; measurement: RBNS enrichment (R)
Target: RNA binding protein fox-1 homolog 2, RRM domain, GST-SBP tag (RBFOX2, Homo sapiens, UniProt O43251-10, residues 100-194)
Setting: natural RNA segment, single round, ends assumed
Target sequence (chain): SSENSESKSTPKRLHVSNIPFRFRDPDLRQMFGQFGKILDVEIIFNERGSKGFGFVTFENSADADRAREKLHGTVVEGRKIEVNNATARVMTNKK
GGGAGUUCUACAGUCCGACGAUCUCCUUCUUCACUCAAAGGCUGCUUUGCUCUGAGUGGGGAAAGAGUGGGUGUUUUGUAGAAGCAUUGCCUUUCAUUGUUCUUUCUAUAUCUGUCCACAAUGCCUACUGUCUUGGAAUUCUCGGGUGCCAA: 0.555
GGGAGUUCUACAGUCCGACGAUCCUGUGCCUAGUUCCUGUGGCCAGGAGGUUGGUGACUGAAACAUUCACACAGGGCUCUUUGAUGGACCCACGAACGCUCUUAGCUUUCUCAGGGGGUCAGCAGAGUUAUUGUGGAAUUCUCGGGUGCCAA: 0.336
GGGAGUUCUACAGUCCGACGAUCCUGCCACGGGCCACUGGCUGCUGGGGACUGGGGACUGGGCAGAGACUGAGCCAGGCAGGAAGGCAGCAGCCUUCAGCCUCUCUGGCCCACUCGGACAACUUCCCAAGGCCUGGAAUUCUCGGGUGCCAA: 0.3
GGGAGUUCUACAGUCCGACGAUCAGAGAGAUGCACUAACAACUGGGGAUAGGGAUGGGGUCAGGGGGAGCCCAAGAUGGUGAUCUGCCCGAGACUCCCAGAGGGUAAUGCCACUCCCACAAUCUCAGGCCUGGUGGAAUUCUCGGGUGCCAA: 0.64
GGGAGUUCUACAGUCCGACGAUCCUUUAACUAGAAAGUGUUUAUUUUGGCUACAUUGUUCACCUUCUGCUGUAUUGGUAUUUGUCUGUUGGGAUUUCAAGGGAGUGUAGAGAAGACAGAAGGAAAGCUGAGAGUGGAAUUCUCGGGUGCCAA: 1.09
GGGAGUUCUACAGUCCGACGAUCAGAGCUAAGUUCCUGAAGACUAAGCUAGAUAGCUGCAGCUAUAUGUAAAUUGUAUAUUUUUAUGAACUUUUGAAGCACACACUCCUGUUUCCCUCUGUGUAGCUUUGUGGUGGAAUUCUCGGGUGCCAA: 0.487
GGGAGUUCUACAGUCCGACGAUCUAUUUAUAUCUACAUUUCCUUCCAGCUGAGUCUUCAAAUUUAGCAUUAUUUUGACACUUUUAAUUUUCAUUUAACAAUGGAUUAGAAAAAUAUUUUGGUCUAGCCACUAAUGGAAUUCUCGGGUGCCAA: 0.585
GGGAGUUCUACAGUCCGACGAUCUUUCAGCCCCUCCCUGGAAUAGUGAGUUGGGAGGAUGGGGAGACAGCUAACCAACUGCAUUACCCAAACCAUAUUGCACUUUUAGUUCCCUAGUUUUCUAGGUGAGCUUCUGGAAUUCUCGGGUGCCAA: 0.756
